Assay results pooled from the literature.
Lines come from different studies, so protocols differ.

Molecule | assay | system | conditions | scale | measurement | result
COc1ccc(-c2coc3cc(O)ccc3c2=O)cc1O | – | extracted rat plasma, autosampler | 563 ng/mL, 24 h, 4 °C, post-preparative stability, high QC | – | accuracy | 92.2 % nominal
Cn1c(-c2ccc(C(N)=O)cc2F)nnc1C(C)(C)Oc1c(F)cc(Cl)cc1F | – | healthy young Japanese subjects, plasma | oral, 50 mg once daily, day 18, 14 days dosing | – | half-life median | 27.3 h
CS(=O)(=O)n1cc2c(n1)CN([C@H]1CO[C@H](c3cc(F)ccc3F)[C@@H](N)C1)C2 | – | healthy Japanese men, plasma | oral, 50 mg once weekly, day 15 | – | Ctrough | 27.9 nM
CC[C@H](C)[C@H](NC(=O)[C@@H](NC(=O)[C@H](CS)NC(=O)[C@H](C)NC(=O)[C@H](CCCNC(=N)N)NC(=O)[C@H](CCCNC(=N)N)NC(=O)[C@H](CC(N)=O)NC(=O)[C@H](CCCNC(=N)N)NC(=O)[C@H](C)NC(=O)[C@H](CS)NC(=O)[C@H](CC(C)C)NC(=O)[C@@H](NC(=O)[C@@H](NC(=O)[C@H](CS)NC(=O)[C@H](CCCCN)NC(=O)[C@@H](N)CCCNC(=N)N)C(C)C)[C@@H](C)CC)C(C)C)C(=O)N[C@@H](CC(C)C)C(=O)N[C@@H](CS)C(=O)N[C@@H](CCCNC(=N)N)C(=O)O | LC-MS | PBS | 0.1 mg/mL | – | single disulfide form | 0%
CONC(=N)c1ccc(-c2ccc(-c3ccc(C(=N)NOC)cc3)o2)cc1 | M1 formation by O-demethylation, substrate | individual human intestinal microsomes | Vmax over Km | – | intrinsic clearance | 10 µL/min/mg
Cc1ccc(Nc2c(F)cccc2Cl)c(CC(=O)O)c1 | cytochrome c release, ELISA | BALB/cByJ female mouse liver mitochondria | 30 min | reference: alamethicin maximal release | EC20 | > 800 µM
CC[C@H](C)[C@H](NC(=O)[C@H](Cc1ccccc1)NC(=O)[C@H](CCC(=O)O)NC(=O)[C@H](CCCCNC(=O)COCCOCCNC(=O)COCCOCCNC(=O)CC[C@H](NC(=O)CCCCCCCCCCCCCCCCC(=O)O)C(=O)O)NC(=O)[C@H](C)NC(=O)[C@H](C)NC(=O)[C@H](CCC(N)=O)NC(=O)CNC(=O)[C@H](CCC(=O)O)NC(=O)[C@H](CC(C)C)NC(=O)[C@H](Cc1ccc(O)cc1)NC(=O)[C@H](CO)NC(=O)[C@H](CO)NC(=O)[C@@H](NC(=O)[C@H](CC(=O)O)NC(=O)[C@H](CO)NC(=O)[C@@H](NC(=O)[C@H](Cc1ccccc1)NC(=O)[C@@H](NC(=O)CNC(=O)[C@H](CCC(=O)O)NC(=O)C(C)(C)NC(=O)[C@@H](N)Cc1cnc[nH]1)[C@@H](C)O)[C@@H](C)O)C(C)C)C(=O)N[C@@H](C)C(=O)N[C@@H](Cc1c[nH]c2ccccc12)C(=O)N[C@@H](CC(C)C)C(=O)N[C@H](C(=O)N[C@@H](CCCNC(=N)N)C(=O)NCC(=O)N[C@@H](CCCNC(=N)N)C(=O)NCC(=O)O)C(C)C | – | Japanese subjects | subcutaneous once weekly, 0.5 mg, geometric mean | reference: steady state over single dose | dose-corrected accumulation ratio | 1.99
CC(C)C[C@H](NC(=O)[C@H](CCc1ccccc1)NC(=O)CN1CCOCC1)C(=O)N[C@@H](Cc1ccccc1)C(=O)N[C@@H](CC(C)C)C(=O)[C@@]1(C)CO1 | LC-MS | human, plasma | intravenous push, 20 mg/m^2 | – | Vss | 140 L
O=C(Cc1cccc(OC(F)(F)F)c1)Nc1ccc(CCCCc2nnc(NC(=O)Cc3ccccn3)s2)nn1 | – | human patients, plasma | oral, 800 mg three times daily fasted, cycle 1 day 15 steady state | – | AUC(0-8h) | 5830 ng·h/mL
O=c1c(O)c(-c2ccc(O)c(O)c2)oc2cc(O)cc(O)c12 | in situ brain perfusion | rat | no efflux inhibition | – | log intrinsic permeability | -5.15
CCOC(=O)[N-]c1cn(N2CCOCC2)n[o+]1 | mitochondrial swelling | BALB/cByJ female mouse liver mitochondria | 30 min, with: succinate + rotenone | reference: CaCl2 maximal swelling | EC20 | > 400 µM
COc1ccc(OCC2=C(C(F)F)C(=O)c3ccccc3C2=O)cc1C(F)(F)F | cyclic voltammetry | DMSO | first wave, vs Ag/AgCl | – | cathodic peak potential | -0.326 V
Ac-CGWWLALALALALALALALALALALWWA-NH2 (N-acetyl, C-amide) | circular dichroism | water/TFE, extrapolated to water | – | – | folded core length | 11 residues
O=C(c1cccnc1-c1ccncc1)N1CCC(O)(Cc2ccccc2)CC1 | – | healthy human, plasma | oral, 100 mg once daily, day 14, arithmetic mean | – | AUCinf | 509 ng·h/mL
O=C(O)CNC(=O)c1ccco1 | – | human hemodialysis patients, plasma ultrafiltrate | pre-treatment | reference: hemodialysis over normal subjects | free concentration ratio | 82
COc1cccc2c1C(=O)c1c(O)c3c(c(O)c1C2=O)C[C@@](O)(C(=O)CO)C[C@@H]3O[C@H]1C[C@H](N)[C@H](O)[C@H](C)O1 | cytochrome c release, ELISA | BALB/cByJ female mouse liver mitochondria | 30 min | reference: alamethicin maximal release | EC20 | 23.3 µM

Repeated from above:
Molecule | assay | system | conditions | scale | measurement | result
O=C(Cc1cccc(OC(F)(F)F)c1)Nc1ccc(CCCCc2nnc(NC(=O)Cc3ccccn3)s2)nn1 | – | human patients, plasma | oral, 800 mg three times daily fasted, cycle 1 day 15 steady state | – | AUC(0-8h) | 5830 ng·h/mL
O=c1c(O)c(-c2ccc(O)c(O)c2)oc2cc(O)cc(O)c12 | in situ brain perfusion | rat | no efflux inhibition | – | log intrinsic permeability | -5.15
